Measurements pooled from the literature.
Each numbered part is a random draw from the data of one study; scales do not carry over between parts. “And” joins repeats or separate records; there may be more than shown.
Chain of UniProt P22607 (whole entry, unmodified, looked up): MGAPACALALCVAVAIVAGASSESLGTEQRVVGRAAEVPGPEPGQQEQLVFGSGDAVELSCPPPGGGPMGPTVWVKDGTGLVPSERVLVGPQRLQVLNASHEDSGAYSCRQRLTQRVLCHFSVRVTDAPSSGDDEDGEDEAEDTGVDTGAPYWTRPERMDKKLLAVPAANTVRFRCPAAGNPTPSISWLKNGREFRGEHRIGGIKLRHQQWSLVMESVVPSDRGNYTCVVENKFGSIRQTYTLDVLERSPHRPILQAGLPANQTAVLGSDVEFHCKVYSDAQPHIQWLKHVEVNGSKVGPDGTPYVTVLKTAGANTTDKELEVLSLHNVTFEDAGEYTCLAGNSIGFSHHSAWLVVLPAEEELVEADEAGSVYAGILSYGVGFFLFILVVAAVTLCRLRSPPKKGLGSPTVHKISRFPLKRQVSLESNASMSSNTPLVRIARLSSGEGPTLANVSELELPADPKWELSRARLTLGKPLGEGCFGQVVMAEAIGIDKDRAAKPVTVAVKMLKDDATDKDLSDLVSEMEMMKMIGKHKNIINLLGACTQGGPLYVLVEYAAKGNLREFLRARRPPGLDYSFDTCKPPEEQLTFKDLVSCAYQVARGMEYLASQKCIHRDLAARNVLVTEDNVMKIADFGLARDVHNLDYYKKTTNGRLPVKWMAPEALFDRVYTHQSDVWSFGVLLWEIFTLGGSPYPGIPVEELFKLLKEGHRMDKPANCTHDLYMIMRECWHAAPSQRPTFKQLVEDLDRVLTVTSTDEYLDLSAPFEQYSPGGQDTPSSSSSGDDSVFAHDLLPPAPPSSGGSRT
Chain of UniProt O43683 (whole entry, looked up): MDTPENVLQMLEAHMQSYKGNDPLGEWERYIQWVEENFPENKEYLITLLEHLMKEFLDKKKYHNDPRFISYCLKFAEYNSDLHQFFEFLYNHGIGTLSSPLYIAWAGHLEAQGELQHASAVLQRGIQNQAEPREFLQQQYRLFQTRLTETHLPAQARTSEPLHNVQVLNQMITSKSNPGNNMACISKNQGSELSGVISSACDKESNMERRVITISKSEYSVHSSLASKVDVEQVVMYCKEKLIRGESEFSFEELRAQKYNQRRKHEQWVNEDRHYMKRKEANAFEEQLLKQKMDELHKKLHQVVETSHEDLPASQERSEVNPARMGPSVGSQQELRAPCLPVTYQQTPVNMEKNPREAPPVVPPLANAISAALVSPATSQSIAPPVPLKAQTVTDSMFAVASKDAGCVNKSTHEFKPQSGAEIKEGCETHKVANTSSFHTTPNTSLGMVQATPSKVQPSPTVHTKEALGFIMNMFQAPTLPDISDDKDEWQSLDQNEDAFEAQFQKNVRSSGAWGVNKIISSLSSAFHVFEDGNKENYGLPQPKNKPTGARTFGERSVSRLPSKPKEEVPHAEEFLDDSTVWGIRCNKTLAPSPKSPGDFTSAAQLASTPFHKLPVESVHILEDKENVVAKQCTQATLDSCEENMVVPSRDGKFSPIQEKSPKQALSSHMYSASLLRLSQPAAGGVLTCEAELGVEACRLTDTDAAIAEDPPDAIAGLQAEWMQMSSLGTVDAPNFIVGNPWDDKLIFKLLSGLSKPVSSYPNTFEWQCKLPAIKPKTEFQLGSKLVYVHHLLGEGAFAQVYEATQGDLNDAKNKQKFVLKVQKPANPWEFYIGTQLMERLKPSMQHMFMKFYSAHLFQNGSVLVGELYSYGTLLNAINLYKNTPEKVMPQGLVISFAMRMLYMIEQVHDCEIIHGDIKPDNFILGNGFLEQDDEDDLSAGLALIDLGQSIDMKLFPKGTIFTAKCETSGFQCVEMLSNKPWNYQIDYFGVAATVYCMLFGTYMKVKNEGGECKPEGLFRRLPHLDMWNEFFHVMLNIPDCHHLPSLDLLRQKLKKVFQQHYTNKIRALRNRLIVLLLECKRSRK
Chain of UniProt P51817 (whole entry, looked up): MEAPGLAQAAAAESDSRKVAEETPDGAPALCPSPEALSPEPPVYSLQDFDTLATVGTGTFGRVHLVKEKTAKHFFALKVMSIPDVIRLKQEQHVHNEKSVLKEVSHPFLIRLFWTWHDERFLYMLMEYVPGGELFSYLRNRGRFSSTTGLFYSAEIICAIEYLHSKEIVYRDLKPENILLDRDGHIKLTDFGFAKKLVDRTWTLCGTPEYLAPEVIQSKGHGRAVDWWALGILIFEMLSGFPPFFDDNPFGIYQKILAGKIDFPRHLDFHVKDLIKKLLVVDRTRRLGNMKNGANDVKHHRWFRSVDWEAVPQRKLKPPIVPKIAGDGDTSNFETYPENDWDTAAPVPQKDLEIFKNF
Chain of UniProt Q8NFD2 (whole entry, looked up): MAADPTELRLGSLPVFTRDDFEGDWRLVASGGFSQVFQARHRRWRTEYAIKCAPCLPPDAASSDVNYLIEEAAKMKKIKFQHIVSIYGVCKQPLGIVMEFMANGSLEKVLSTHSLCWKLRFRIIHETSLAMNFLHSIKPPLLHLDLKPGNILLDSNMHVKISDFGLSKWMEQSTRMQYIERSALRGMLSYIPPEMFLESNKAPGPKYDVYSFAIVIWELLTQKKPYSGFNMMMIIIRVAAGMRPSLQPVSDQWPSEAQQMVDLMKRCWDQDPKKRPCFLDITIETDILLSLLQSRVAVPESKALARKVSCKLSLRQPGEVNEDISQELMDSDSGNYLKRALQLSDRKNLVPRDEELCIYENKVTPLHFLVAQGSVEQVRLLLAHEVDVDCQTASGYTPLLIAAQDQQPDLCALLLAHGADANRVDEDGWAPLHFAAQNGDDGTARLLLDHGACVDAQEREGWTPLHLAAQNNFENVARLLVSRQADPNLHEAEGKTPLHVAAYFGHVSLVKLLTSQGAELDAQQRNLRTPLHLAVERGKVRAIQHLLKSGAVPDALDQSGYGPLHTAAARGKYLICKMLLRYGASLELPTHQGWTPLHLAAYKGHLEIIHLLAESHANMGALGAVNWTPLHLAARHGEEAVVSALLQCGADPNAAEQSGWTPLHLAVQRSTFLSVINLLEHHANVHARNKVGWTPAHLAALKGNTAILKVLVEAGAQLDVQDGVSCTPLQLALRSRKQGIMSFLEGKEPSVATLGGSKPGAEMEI
Chain of UniProt Q15831 (whole entry, looked up): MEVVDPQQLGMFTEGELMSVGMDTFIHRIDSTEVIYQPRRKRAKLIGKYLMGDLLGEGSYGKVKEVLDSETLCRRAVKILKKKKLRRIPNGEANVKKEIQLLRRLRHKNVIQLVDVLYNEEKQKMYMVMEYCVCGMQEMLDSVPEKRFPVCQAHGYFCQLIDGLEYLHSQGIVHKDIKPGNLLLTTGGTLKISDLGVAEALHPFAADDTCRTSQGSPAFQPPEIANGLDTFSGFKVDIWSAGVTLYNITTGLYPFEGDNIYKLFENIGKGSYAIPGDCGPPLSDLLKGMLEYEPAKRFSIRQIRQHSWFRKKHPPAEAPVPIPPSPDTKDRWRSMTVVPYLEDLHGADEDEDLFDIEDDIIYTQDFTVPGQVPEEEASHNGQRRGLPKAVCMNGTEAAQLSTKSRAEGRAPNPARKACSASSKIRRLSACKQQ

Sample 1
Target: Tyrosine-protein kinase JAK1 (JAK1, Homo sapiens, UniProt P23458)
Chain of UniProt P23458 (whole entry, looked up): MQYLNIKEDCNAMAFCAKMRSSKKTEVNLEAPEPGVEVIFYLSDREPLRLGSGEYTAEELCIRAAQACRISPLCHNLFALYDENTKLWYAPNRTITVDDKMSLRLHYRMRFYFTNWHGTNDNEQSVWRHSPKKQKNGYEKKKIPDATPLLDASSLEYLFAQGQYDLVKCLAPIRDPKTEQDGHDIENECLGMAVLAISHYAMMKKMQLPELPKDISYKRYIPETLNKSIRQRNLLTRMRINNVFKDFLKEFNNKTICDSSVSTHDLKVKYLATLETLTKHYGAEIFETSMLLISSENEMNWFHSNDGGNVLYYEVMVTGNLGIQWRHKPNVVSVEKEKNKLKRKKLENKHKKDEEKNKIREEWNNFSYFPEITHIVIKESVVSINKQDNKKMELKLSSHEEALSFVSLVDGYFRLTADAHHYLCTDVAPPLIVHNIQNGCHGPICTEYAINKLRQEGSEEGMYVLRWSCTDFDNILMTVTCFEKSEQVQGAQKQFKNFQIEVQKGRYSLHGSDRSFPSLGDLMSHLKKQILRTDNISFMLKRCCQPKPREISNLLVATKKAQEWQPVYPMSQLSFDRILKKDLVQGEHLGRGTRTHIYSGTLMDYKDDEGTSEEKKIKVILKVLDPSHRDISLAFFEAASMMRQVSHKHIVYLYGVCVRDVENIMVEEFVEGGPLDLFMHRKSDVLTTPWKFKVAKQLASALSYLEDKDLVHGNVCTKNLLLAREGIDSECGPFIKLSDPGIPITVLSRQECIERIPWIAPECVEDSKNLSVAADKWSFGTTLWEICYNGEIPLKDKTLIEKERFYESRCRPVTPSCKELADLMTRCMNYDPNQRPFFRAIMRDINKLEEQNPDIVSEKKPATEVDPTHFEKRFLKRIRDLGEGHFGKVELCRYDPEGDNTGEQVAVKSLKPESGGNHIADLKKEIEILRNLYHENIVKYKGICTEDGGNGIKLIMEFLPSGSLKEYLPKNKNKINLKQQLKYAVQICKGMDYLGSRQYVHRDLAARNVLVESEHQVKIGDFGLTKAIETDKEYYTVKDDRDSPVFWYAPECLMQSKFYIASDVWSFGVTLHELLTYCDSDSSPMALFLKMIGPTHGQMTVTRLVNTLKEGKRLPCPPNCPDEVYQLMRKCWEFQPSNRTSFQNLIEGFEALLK
Effect on: enzyme activity
Action: inhibitor
Tested at: 0.5 µM
Baseline: control
SMILES	remaining activity [%]
CN([C@@H](Cc1ccc(OS(=O)(=O)c2cccc3cnccc23)cc1)C(=O)N1CCN(c2ccccc2)CC1)S(=O)(=O)c1cccc2cnccc12	108
N#Cc1c(NC(=O)c2cccc3ccccc23)sc2c1CCCC2	108
COc1cc2c(cc1OC)-c1[nH]nc(Nc3cccc(F)c3)c1C2	97.6
CCN(CC)C(=O)c1ccc(Nc2nc(OCC3CCCCC3)c3[nH]cnc3n2)cc1	51.8
c1ccc(-c2cnc(Nc3ccc(OCCN4CCCC4)cc3)s2)cc1	101
O=c1cc(-c2cccc3c2Sc2ccccc2S3)oc(N2CCOCC2)c1	105
CCOc1nc(NC(=O)Cc2cc(OC)ccc2OC)cc(N)c1C#N	110
Ic1cccc(CSc2nnc(-c3ccncc3)o2)c1	103
Nc1cccc(-c2cc3c(Oc4cccc(O)c4)ncnc3[nH]2)c1	106
O=C(Nc1cccc(Nc2nccc(Nc3cccc(C(F)(F)F)c3)n2)c1)C1CC1	74
Cn1nc2c3c(cccc31)C(=O)c1ccccc1-2	110
c1ccc(-c2[nH]ncc2-c2ccnc3ccccc23)nc1	96.7
COc1cc2ncnc(Nc3ccc(O)c(Br)c3)c2cc1OC	81.5
COc1cc2ncnc(Nc3cccc(Cl)c3)c2cc1OC	90.4
O=C(NC(NC(=S)Nc1ccc(F)c([N+](=O)[O-])c1)C(Cl)(Cl)Cl)C(c1ccccc1)c1ccccc1 (stereo not drawn)	106
Cc1cc2ncc(-c3ccccc3)nc2cc1C	103
Cc1nc2cc3nc(-c4cccs4)cnc3cc2n1C	105
Cc1cn(-c2cc(NC(=O)c3ccc(C)c(Nc4nccc(-c5cccnc5)n4)c3)cc(C(F)(F)F)c2)cn1	104
CCN(CC)CCNC(=O)c1c(C)[nH]c(/C=C2\C(=O)Nc3ccc(Cl)cc32)c1C	65.8
O=C1c2ccccc2-c2n[nH]c3cccc1c23	87.2
O=C1C(Cl)=C(N2C(=O)CCC2=O)C(=O)c2ccccc21	107
N#C/C(=C\c1ccc(O)c(O)c1)C(=O)NCc1ccccc1	93.8

Sample 2
SMILES: COc1ccc2c(c1)O[C@@H](c1ccc(OC)c(OC)c1)C[C@H]2NC(=O)C1(c2ccc3c(c2)OC(F)(F)O3)CC1
Tested at: 1 µM
target	effect on	technique	remaining binding
GRK2 (Homo sapiens, UniProt P25098)	cell-free assay	competition with immobilised ligand	100%
CHEK1 (Homo sapiens, UniProt O14757)	cell-free assay	competition with immobilised ligand	100%
Tyrosine-protein kinase ABL1, phosphorylated (ABL1, Homo sapiens, UniProt P00519, Q252H)	cell-free assay	competition with immobilised ligand	93%
STK11 (Homo sapiens, UniProt Q15831)	cell-free assay	competition with immobilised ligand	65%
PRKX (Homo sapiens, UniProt P51817)	cell-free assay	competition with immobilised ligand	83%
STK24 (Homo sapiens, UniProt Q9Y6E0)	cell-free assay	competition with immobilised ligand	96%
CDK13 (Homo sapiens, UniProt Q14004)	cell-free assay	competition with immobilised ligand	98%
MAP3K11 (Homo sapiens, UniProt Q16584)	cell-free assay	competition with immobilised ligand	100%
KIT (Homo sapiens, UniProt P10721)	cell-free assay	competition with immobilised ligand	86%
RET (Homo sapiens, UniProt P07949)	cell-free assay	competition with immobilised ligand	99%
CSNK1A1 (Homo sapiens, UniProt P48729)	cell-free assay	competition with immobilised ligand	78%
CDC42BPG (Homo sapiens, UniProt Q6DT37)		competition binding	89%
FLT3 (Homo sapiens, UniProt P36888, D835H)	cell-free assay	competition with immobilised ligand	100%
Tyrosine-protein kinase ABL1, phosphorylated (ABL1, Homo sapiens, UniProt P00519, M351T)	cell-free assay	competition with immobilised ligand	78%
ACVR2A (Homo sapiens, UniProt P27037)	cell-free assay	competition with immobilised ligand	90%
TIE1 (Homo sapiens, UniProt P35590)	cell-free assay	competition with immobilised ligand	100%
PIM3 (Homo sapiens, UniProt Q86V86)	cell-free assay	competition with immobilised ligand	91%
FGFR3 (Homo sapiens, UniProt P22607, G697C)	cell-free assay	competition with immobilised ligand	95%
BUB1 (Homo sapiens, UniProt O43683)	cell-free assay	competition with immobilised ligand	99%
MAP4K3 (Homo sapiens, UniProt Q8IVH8)	cell-free assay	competition with immobilised ligand	90%
CSNK1G1 (Homo sapiens, UniProt Q9HCP0)	cell-free assay	competition with immobilised ligand	99%
ANKK1 (Homo sapiens, UniProt Q8NFD2)	cell-free assay	competition with immobilised ligand	76%

Sample 3
Cell line: mouse MPNST tumor cells
Technique: high-content immunofluorescence imaging
Measured: nuclear SOX9
Tested at: 10 µM
Time: 12 h
Setting: mean of 2 replicates
Baseline: DMSO control
Direction: higher = more nuclear SOX9
SMILES	nuclear SOX9 intensity
Cc1cc2cc3c(C)cc(=O)oc3c(C)c2o1	92.2 % of DMSO and 111 % of DMSO
c1ccc(Cn2c(NCc3ccco3)nc3ccccc32)cc1	97.9 % of DMSO
O=C(O)C1=CCCN(CCON=C(c2ccccc2)c2ccccc2)C1	104 % of DMSO
CCCCOc1ccc(OCCCN2CCOCC2)cc1	115 % of DMSO
Cc1cc(NC(=O)Nc2ccc3c(ccn3C)c2)sn1	112 % of DMSO
CCCc1c(-c2ccc(O)cc2)nn(-c2ccc(O)cc2)c1-c1ccc(O)cc1	97.2 % of DMSO
CN(C)CCc1c[nH]c2ccc(Cn3cncn3)cc12	83.7 % of DMSO and 89.6 % of DMSO
Cc1c(Cl)cccc1Nc1ncccc1C(=O)O	97.8 % of DMSO
CN(C)CCCOc1nn(Cc2ccccc2)c2ccccc12	116 % of DMSO
CCCCn1c(-c2ccccc2)nc(-c2ccccc2)c1CN(Cc1ccc2c(c1)OCO2)Cc1ccc2c(c1)OCO2	155 % of DMSO
Cc1c(OCc2cccc(-c3ccc(C(=O)O)cc3)c2)cc2c(c1C)C(=O)C(C1CCCC1)C2 (stereo not drawn)	87 % of DMSO
Cc1ccc([N+](=O)[O-])cc1S(=O)(=O)n1c(C)nc2ccccc21	106 % of DMSO
CN(C)C/C=C(/c1ccc(Br)cc1)c1cccnc1	144 % of DMSO
O=C(O)C1CCCN(CCC=C(c2ccccc2)c2ccccc2)C1 (stereo not drawn)	89.2 % of DMSO

Sample 4
Cell line: A-375
Tested at: 100 µM
Time: 36 h
Compound	viability
COC1=C(OC)C(=O)C(C/C=C(\C)CC/C=C(\C)CC/C=C(\C)CC/C=C(\C)CC/C=C(\C)CC/C=C(\C)CC/C=C(\C)CC/C=C(\C)CC/C=C(\C)CCC=C(C)C)=C(C)C1=O	94.6%
CC1(C)[C@@H](O[C@H]2O[C@H](C(=O)O)[C@@H](O)[C@H](O)[C@H]2O[C@@H]2O[C@H](C(=O)O)[C@@H](O)[C@H](O)[C@H]2O)CC[C@]2(C)[C@H]3C(=O)C=C4[C@@H]5C[C@@](C)(C(=O)O)CC[C@]5(C)CC[C@@]4(C)[C@]3(C)CC[C@@H]12	112% and 118%
COc1cc2c(Oc3ccc4[nH]c(C)cc4c3F)ncnc2cc1OCCCN1CCCC1	1.14%
O=C(CCCl)NCc1ccccc1	107%
Nc1c2ccccc2nc2ccccc12	7.35%
CC(=O)OCC(CCn1cnc2cnc(N)nc21)COC(C)=O	104%
O=C(c1ccc(F)cc1)C1CCN(CCn2c(=O)[nH]c3ccccc3c2=O)CC1	76.5%
CSc1nc2cc(Cl)c(Oc3cccc(Cl)c3Cl)cc2[nH]1	0.47%
NCCCC[C@H](NC(=O)[C@@H]1CCCN1C(=O)[C@@H]1CSSC[C@H](N)C(=O)N[C@@H](Cc2ccccc2)C(=O)N[C@@H](Cc2ccccc2)C(=O)N[C@@H](CCC(N)=O)C(=O)N[C@@H](CC(N)=O)C(=O)N1)C(=O)NCC(N)=O	88.6%
C=C1CCN([C@H](C)[C@](O)(Cn2cncn2)c2ccc(F)cc2F)CC1	11.4%
CC1(C)S[C@@H]2[C@H](NC(=O)C(C(=O)O)c3ccccc3)C(=O)N2[C@H]1C(=O)O (stereo partly drawn)	93%
COc1c2occc2c(OC)c2c(=O)cc(C)oc12	80.9%
CCCCC1=NC2(CCCC2)C(=O)N1Cc1ccc(-c2ccccc2-c2nnn[nH]2)cc1	108%
CCN(CC)CCNC(=O)c1c(C)[nH]c(/C=C2\C(=O)Nc3ccc(F)cc32)c1C	0.835% and 6.13%

A few entries again (sample 2):
target	effect on	technique	remaining binding
STK24 (Homo sapiens, UniProt Q9Y6E0)	cell-free assay	competition with immobilised ligand	96%
GRK2 (Homo sapiens, UniProt P25098)	cell-free assay	competition with immobilised ligand	100%
KIT (Homo sapiens, UniProt P10721)	cell-free assay	competition with immobilised ligand	86%
ANKK1 (Homo sapiens, UniProt Q8NFD2)	cell-free assay	competition with immobilised ligand	76%
